Results gathered from unrelated publications.
Compare with care: the assays were run in different laboratories. ± gives the spread as reported.

| Compound | target | test | system | setting | how to read | endpoint | result |
| --- | --- | --- | --- | --- | --- | --- | --- |
| CC(C)(C)C(=O)C1C(=O)c2ccccc2C1=O | human FXR | reporter gene | HEK293 FXR-bla cells | concentration not given | – | activity | inactive |
| Oc1cc(Cl)cc(-c2cccc(Cl)c2)c1 | gap junction, rat | gap junctional communication, scrape loading dye transfer | WB-F344 rat liver epithelial | 1 h | – | IC50 | 33 µM |
| Cc1ccccc1OP(=O)(Oc1ccccc1C)Oc1ccccc1C | carboxylesterase (mouse) | inhibitor | PON1+/+ mice, serum | dermal, 10 mg/kg, 24 h | – | carboxylesterase inhibition | inhibited |
| Clc1ccccc1-c1ccccc1Cl | gap junction, rat | gap junctional communication, scrape loading dye transfer | WB-F344 rat liver epithelial | 1 h | – | IC25 | 15 µM |
| COc1ncccc1-c1cnn2ccc(N3CCN(C(=O)OC(C)C)CC3)nc12 | T-type calcium channel | inhibitor | – | – | – | IC50 | > 25 µM |
| CC(C)NC[C@@H](C(=O)N1CCN(c2ncnc3c2[C@H](C)C[C@H]3Cl)CC1)c1ccc(Cl)cc1 | Akt | inhibitor | mouse BT-474 xenograft | oral, 100 mg/kg | – | response duration | 24 h |
| Oc1ccc(-c2cccc(Cl)c2)cc1Cl | gap junction, rat | gap junctional communication, scrape loading dye transfer | WB-F344 rat liver epithelial | 1 h | – | IC25 | 43 µM |
| CCOP(=O)(OCC)Oc1nc(Cl)c(Cl)cc1Cl | carboxylesterase (mouse) | – | PON1 knockout mouse, liver | dermal, 0.75 mg/kg, 4 h | – | inhibition | 8% |
| Clc1cccc(-c2cccc(Cl)c2)c1 | gap junction, rat | gap junctional communication, scrape loading dye transfer | WB-F344 rat liver epithelial | 1 h | – | IC25 | 18 µM |
| O=C(Nc1cccnn1)N1CCN([C@@H]2CCOc3cc(C(F)(F)F)ccc32)CC1 | NMDA | Cerep BioPrint | – | 20 µM | – | inhibition | 12% |
| CO/N=C1\C[C@]2(C[C@@H]3C[C@@H](C/C=C(\C)C[C@@H](C)/C=C/C=C4\CO[C@@H]5[C@H](O)C(C)=C[C@@H](C(=O)O3)[C@]45O)O2)O[C@H](/C(C)=C/C(C)C)[C@H]1C | human FXR | – | HEK293 cells | – | – | IC50 | 16.7 ± 7.7 µM |
| CO[C@H]1[C@@H](OC)C[C@H](C)[C@@H](OC)C2=CC(=O)C=C(NC(=O)/C(C)=C/C=C\[C@H](OC)[C@@H](OC(N)=O)/C(C)=C/[C@@H]1C)C2=O | human TRPM8 | – | HEK293 | 5 µM, 24 h | relative to: control | remaining activity | 120 ± 8.38% |
| C[C@H](CCCC(C)(C)O)[C@H]1CC[C@H]2[C@@H]3CC=C4C[C@@H](O)CC[C@]4(C)[C@H]3CC[C@]12C | NMDA receptor, rat | peak ion current, potentiator | rat hippocampal neurons | 10 µM, with: NMDA 10 µM, co-applied | – | potentiation | 20.4 ± 5.3% |
| CC(=O)N[C@@H](CSCCC=O)C(=O)O | porcine kidney aminoacylase 1 | substrate | – | without Co2+ | – | kcat | 0.01 s⁻¹ |
| O=C1c2c(O)ccc(O)c2C(=O)c2c(NCCNCCO)ccc(NCCNCCO)c21 | double-stranded RNA | RNA intercalation, thiazole orange displacement | – | with: thiazole orange | – | IC50 | 0.358 µM |
| CCn1c(-c2nc3cc(C(=O)N4CCC[C@@H](N)C4)cc(OC)c3n2C)cc2cccnc21 | PAD4 | immunoblot | human neutrophils | 10 µM, with: A23187 or Staphylococcus aureus stimulation | – | protein citrullination | inhibited |
| Clc1ccc(Cl)c(-c2ccccc2Cl)c1 | gap junction, rat | gap junctional communication, scrape loading dye transfer | WB-F344 rat liver epithelial | 1 h | – | IC50 | 12 µM |

| Compound | target | test | system | setting | how to read | endpoint | result |
| --- | --- | --- | --- | --- | --- | --- | --- |
| CCC(=O)OCCc1ccccc1 | Aedes aegypti OR15/Orco | agonist, two-electrode voltage clamp | Xenopus oocytes | – | – | EC50 | 20.2 µM |
| COc1cc(Nc2ncc(F)c(Nc3ccc4c(n3)NC(=O)C(C)(C)O4)n2)cc(OC)c1OC | GABAA receptor agonist site | binding | – | – | – | IC50 | > 10 µM |
| C#Cc1nc(C(=O)N2CCC(NC(=O)c3cnc(-c4ccccc4)s3)(c3nc4ccccc4n3C)CC2)cs1 | STING (mouse) | inhibitor, RT-qPCR | iBMDMs | concentration not given, 2 h, with: 500 nM diABZI | – | IFNβ mRNA level | inhibited |
| Oc1ccc(-c2nc(-c3ccncc3)c(-c3ccc(F)cc3)[nH]2)cc1 | p38 MAPK (human) | inhibitor, RT-PCR, refers to: SOCS3 mRNA | UT7/EPO | concentration not given, 1 h, with: rHuEPO | – | inhibition | 20 to 30% |
| Oc1ccc(-c2ccc(Cl)cc2)c(Cl)c1 | gap junction, rat | gap junctional communication, scrape loading dye transfer | WB-F344 rat liver epithelial | 1 h | – | IC50 | 19 µM |
| O=[N+]([O-])/C=C/c1ccc2c(c1)OCO2 | human TRPM8 | – | HEK293 | 5 µM, 24 h | relative to: control | remaining activity | 97.2 ± 7.21% |
| CCCCCCc1ccc(O)cc1 | HBV core protein Cp149 dimer | solution NMR | – | 4 molar equivalents, pH 7.5, 295 K, average over eight residues | relative to: apo Cp149 dimer | average chemical shift perturbation | 0.083 ppm |
| COc1ccc(N2C(=O)N(c3c(C)cccc3Cl)Cc3cnc(Nc4ccc(C5CCN(C)CC5)cc4OC)nc32)nc1 | COT1, human | kinase activity | – | 0.5 µM | – | inhibition | 2.55% |
| O=[N+]([O-])c1ccc(Cl)c([N+](=O)[O-])c1 | 12 recombinant human hepatic cytosolic GSTs | GST enzyme activity, substrate, spectrophotometry | – | 1 mM, 6 min, 30 °C, with: GSH 1 mM | – | activity class | active |
| CC(=O)C(c1ccccc1)c1ccccc1 | human FXR | reporter gene | HEK293 FXR-bla cells | concentration not given | – | activity | inactive |
| Clc1ccc(-c2ccc(Cl)cc2Cl)cc1 | gap junction, rat | gap junctional communication, scrape loading dye transfer | WB-F344 rat liver epithelial | 1 h | – | IC50 | 22 µM |
| COc1cc(OC)c(/C=C2/C(=O)Nc3ccccc32)c(OC)c1 | human TRPM8 | – | HEK293 | 5 µM, 24 h | relative to: control | remaining activity | 119 ± 7.75% |
| O=C1c2ccccc2C(=O)C1C(=O)C(c1ccccc1)c1ccccc1 | human FXR | reporter gene | HEK293 FXR-bla cells | concentration not given | – | activity | inactive |
| C[C@H](C(=O)N[C@H]1COc2ccccc2[C@@H]1S(C)(=O)=O)c1ccc(F)cc1 | GABAA chloride channel, rat | binding | – | 10 µM, Eurofins selectivity panel, with: TBOB | – | inhibition | 1% |
| c1cncc([C@@H]2CCCN2)c1 | sigma receptor 2 | radioligand binding | – | 50 µM | – | inhibition | -1.59% |
| Clc1ccc(-c2cc(Cl)ccc2Cl)cc1 | gap junction, rat | gap junctional communication, scrape loading dye transfer | WB-F344 rat liver epithelial | 1 h | – | IC25 | 13 µM |
| C[C@]1(CO)Cc2ncn(-c3ccc(C#N)c(Cl)c3)c2C(=O)O1 | aldosterone synthase | inhibitor | human, plasma | 80 mg, days 14 and 15, European multiple ascending dose | relative to: baseline | plasma 11-deoxycortisol | increased |

Some of these lines once more:
| Compound | target | test | system | setting | how to read | endpoint | result |
| --- | --- | --- | --- | --- | --- | --- | --- |
| CO[C@H]1[C@@H](OC)C[C@H](C)[C@@H](OC)C2=CC(=O)C=C(NC(=O)/C(C)=C/C=C\[C@H](OC)[C@@H](OC(N)=O)/C(C)=C/[C@@H]1C)C2=O | human TRPM8 | – | HEK293 | 5 µM, 24 h | relative to: control | remaining activity | 120 ± 8.38% |
| O=C(Nc1cccnn1)N1CCN([C@@H]2CCOc3cc(C(F)(F)F)ccc32)CC1 | NMDA | Cerep BioPrint | – | 20 µM | – | inhibition | 12% |
| CCOP(=O)(OCC)Oc1nc(Cl)c(Cl)cc1Cl | carboxylesterase (mouse) | – | PON1 knockout mouse, liver | dermal, 0.75 mg/kg, 4 h | – | inhibition | 8% |
